{"data": "Measured values pooled from the literature", "note": "Numbered parts are unrelated; each lists some results of a single study."}
{"data": "Set 1", "target": "Replicase polyprotein 1ab, main protease (rep, Severe acute respiratory syndrome coronavirus 2, UniProt P0DTD1)", "observed": "enzyme activity", "action": "inhibitor", "tested at": "20 µM", "setting": "hit confirmation"}
{"Compound": "COC(=O)[C@H](CCSC)NC(=O)c1ccc(NC[C@@H](N)CS)cc1-c1ccccc1", "inhibition": "73.3%"}
{"Compound": "CCCCOc1ccc(C(=O)CCN2CCCCC2)cc1", "inhibition": "33.4%"}
{"Compound": "C=C1C(=O)O[C@H]2[C@H]1CC/C(C)=C\\CC[C@@]1(C)O[C@@H]21", "inhibition": "3.5%"}
{"Compound": "Cc1ccc([N+](=O)[O-])cc1S(=O)(=O)N(C)C", "inhibition": "-20.4%"}
{"Compound": "Oc1ccc2ccccc2c1SSc1c(O)ccc2ccccc12", "inhibition": "98.5%"}
{"data": "Set 2", "organism": "Vesicular stomatitis virus", "observed": "pseudovirus infection", "method": "FDA-approved drug library screen", "tested at": "concentration not given", "setting": "SARS-CoV-2 spike pseudotype", "baseline": "vehicle"}
{"SMILES": "CN(C)CCc1c[nH]c2ccc(CS(=O)(=O)N3CCCC3)cc12.O=C(O)CC(O)C(=O)O", "GFP-positive cells [%]": 94.1}
{"SMILES": "C=CCN1CC[C@]23c4c5ccc(O)c4O[C@H]2[C@@H](OCCOCCOCCOCCOCCOCCOCCOC)CC[C@@]3(O)[C@H]1C5.O=C(O)C(=O)O", "GFP-positive cells [%]": 85.9}
{"SMILES": "CN[C@H]1C(=O)N[C@@H]2Cc3ccc(cc3)Oc3cc4cc(c3O[C@@H]3O[C@H](C(=O)O)[C@@H](O)[C@H](O)[C@H]3NC(=O)CCCCCCCCC(C)C)Oc3ccc(cc3Cl)[C@@H](O)[C@@H]3NC(=O)[C@H](NC(=O)[C@@H]4NC(=O)[C@@H](NC2=O)c2cc(cc(O)c2Cl)Oc2cc1ccc2O)c1ccc(O)c(c1)-c1c(O[C@H]2O[C@H](CO)[C@@H](O)[C@H](O)[C@@H]2O)cc(O)cc1[C@@H](C(=O)O)NC3=O", "GFP-positive cells [%]": 27.5}
{"data": "Set 3", "target": "Centromere-binding protein 1, full length, N-terminal tag (CBF1, Saccharomyces cerevisiae, UniProt P17106, residues 1-351)", "method": "protein-binding microarray", "form": "double-stranded DNA, one strand shown", "sample": "in vitro", "tested at": "0.8 µM", "setting": "whole 60-bp probe, no competitor", "direction": "higher = stronger binding", "sequence of UniProt P17106 (whole entry, looked up)": "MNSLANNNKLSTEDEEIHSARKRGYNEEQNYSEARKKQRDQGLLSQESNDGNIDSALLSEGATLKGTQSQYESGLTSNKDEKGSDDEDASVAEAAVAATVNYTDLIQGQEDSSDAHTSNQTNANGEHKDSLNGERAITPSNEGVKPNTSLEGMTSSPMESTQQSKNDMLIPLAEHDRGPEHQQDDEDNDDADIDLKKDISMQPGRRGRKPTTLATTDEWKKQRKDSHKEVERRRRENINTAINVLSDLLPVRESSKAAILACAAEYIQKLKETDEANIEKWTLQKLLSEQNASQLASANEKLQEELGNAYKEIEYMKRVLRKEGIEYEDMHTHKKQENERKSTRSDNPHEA"}
{"Strand": "CCTAACTACTATATCCTCGTGAAATAGCTTCGTACAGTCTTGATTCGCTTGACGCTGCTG", "fluorescence intensity [a.u.]": 578}
{"Strand": "CTAGCTGTTATACTATTCGTGATCCAGGGCAAATTCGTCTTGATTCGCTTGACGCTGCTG", "fluorescence intensity [a.u.]": 573}
{"Strand": "TGTACGAAGCTATATCACAAAAATATAGTAGTTAGGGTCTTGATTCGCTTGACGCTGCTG", "fluorescence intensity [a.u.]": 614}
{"Strand": "TGTACGAAGCTATATCACCATCGTATAGTAGTTAGGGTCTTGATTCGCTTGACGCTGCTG", "fluorescence intensity [a.u.]": 503}
{"Strand": "GAACCGGTGGCATGCCACATGGCGAAACCCTTATAGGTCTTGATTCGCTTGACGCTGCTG", "fluorescence intensity [a.u.]": 600}
{"Strand": "CTACAAGTAAAATGCAACGTGCAAATGCTGATCTTCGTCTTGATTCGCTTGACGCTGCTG", "fluorescence intensity [a.u.]": 692}
{"Strand": "GAAATTATGTATTCTTGCGTGCATCTGCAAATCTAGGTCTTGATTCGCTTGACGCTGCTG", "fluorescence intensity [a.u.]": 538}
{"Strand": "TGTACGAAGCTATGATGTAAAATTATAGTAGTTAGGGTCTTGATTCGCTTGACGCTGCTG", "fluorescence intensity [a.u.]": 526}
{"data": "Set 4", "target": "Ras GTPase-activating protein-binding protein 1, full length (G3BP1, Homo sapiens, UniProt Q13283)", "method": "RNA Bind-n-Seq", "form": "RNA", "sample": "in vitro", "tested at": "200 nM", "setting": "whole 134-nt RNA, ends assumed", "with": "150 mM KCl", "baseline": "input library", "direction": "higher = stronger binding", "sequence of UniProt Q13283 (whole entry, looked up)": "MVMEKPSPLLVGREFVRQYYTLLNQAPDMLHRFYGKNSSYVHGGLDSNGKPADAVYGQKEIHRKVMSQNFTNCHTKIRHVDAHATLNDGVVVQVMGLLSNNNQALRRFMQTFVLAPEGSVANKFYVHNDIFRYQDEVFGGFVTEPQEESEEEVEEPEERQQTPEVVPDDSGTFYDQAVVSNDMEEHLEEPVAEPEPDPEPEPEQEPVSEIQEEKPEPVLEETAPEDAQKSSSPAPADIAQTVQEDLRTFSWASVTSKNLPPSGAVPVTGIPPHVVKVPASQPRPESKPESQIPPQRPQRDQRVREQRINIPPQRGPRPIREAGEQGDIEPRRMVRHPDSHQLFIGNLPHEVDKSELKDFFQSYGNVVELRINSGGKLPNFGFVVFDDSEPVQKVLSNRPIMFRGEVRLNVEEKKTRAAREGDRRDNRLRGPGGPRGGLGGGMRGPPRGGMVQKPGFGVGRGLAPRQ"}
{"Strand": "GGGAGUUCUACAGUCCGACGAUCGCAGGAAGUAAAAACAAAUGGAAAUGCUUCGGAUAGUGGCAGGGGUGGGGGUUGCUAAGGAAAGGGUGGAAUGGGAGUGGGUAAAGAGUUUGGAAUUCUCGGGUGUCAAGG", "log2 enrichment": 0.935}
{"Strand": "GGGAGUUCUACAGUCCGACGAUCUAACUUUAGAGGAGGAUCUGAUGGUUAUGGCAGUGGACGUGGAUUUGGGGAUGGCUAUAAUGGGUAUGGAGGAGGACCUGGAGGUGGCAAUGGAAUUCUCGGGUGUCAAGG", "log2 enrichment": 0.347}
{"Strand": "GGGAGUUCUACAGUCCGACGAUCCCUGUGCUACACAUCGUAUGUACCGAAUCGGGAAAAAAAGGGUUUUUUUGGGUUUUUGGGAAAGUAUUAUGUUACGCCGUUCGGAUCUGCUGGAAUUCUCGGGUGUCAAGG", "log2 enrichment": -1.12}
{"Strand": "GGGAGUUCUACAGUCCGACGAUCUGGGAGGUGGAUUUUGUUUAGUUUUUUAGCUCAUUUCCAGGGGUGGGAAUUUUUUUUUAAUAUGUGUCAUGAAUAAAGUUGUUUUUGAAAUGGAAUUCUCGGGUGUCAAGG", "log2 enrichment": 0.138}
{"Strand": "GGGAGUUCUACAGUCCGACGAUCAAGUCCUGUGCUACACAUCGUAUGUACCGAAUCGGGUUUGGGUGGGAAAAAAAGGGAAAGUAUUAUGUUACGCCGUUCGGAUCUGCACUUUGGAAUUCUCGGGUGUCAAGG", "log2 enrichment": 0.0395}
{"Strand": "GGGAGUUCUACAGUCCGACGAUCAGUCCUGUGCUACACAUCGUAUGUACCGAAUCGGGCCCCCGGGGCCCCCGGCCCCCGGAAAGUAUUAUGUUACGCCGUUCGGAUCUGCACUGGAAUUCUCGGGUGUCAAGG", "log2 enrichment": -0.276}
{"Strand": "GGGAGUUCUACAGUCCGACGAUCCCUGUGCUACACAUCGUAUGUACCGAAUCGGGGAAAAAGGGGAAAAAGGGGUUUUUGGGGAAAGUAUUAUGUUACGCCGUUCGGAUCUGCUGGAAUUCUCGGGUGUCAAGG", "log2 enrichment": 0.267}
{"Strand": "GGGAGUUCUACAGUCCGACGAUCUGGGAGGUGGAUUUUGUUUAUUUUUUUAGCUCAUUUCCAGGGGUUGGAAUUUUUUUUUAAUAUGUGUCAUGAAUAAAGUUGUUUUUGAAAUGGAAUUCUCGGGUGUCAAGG", "log2 enrichment": -0.335}
{"data": "Set 5", "target": "Histone acetyltransferase KAT6A, both winged helices, GST fusion (KAT6A, Homo sapiens, UniProt Q92794, residues 1-181)", "method": "protein binding microarray", "form": "double-stranded DNA, one strand shown", "sample": "in vitro", "tested at": "not given", "setting": "8-mer, flanks averaged, mean of 2 arrays, mostly near background", "baseline": "not given", "direction": "higher = stronger binding", "Target sequence (chain)": "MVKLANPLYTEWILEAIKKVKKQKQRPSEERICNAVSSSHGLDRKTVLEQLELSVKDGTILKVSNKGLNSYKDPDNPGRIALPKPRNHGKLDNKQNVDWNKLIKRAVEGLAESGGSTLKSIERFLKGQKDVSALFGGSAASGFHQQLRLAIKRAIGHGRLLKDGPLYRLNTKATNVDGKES"}
{"Strand": "TAAGGAGA", "E-score": -0.0953}
{"Strand": "ATAAATCG", "E-score": 0.00734}
{"Strand": "CTGTCTGA", "E-score": -0.0371}
{"Strand": "ACAATCGT", "E-score": -0.0414}
{"Strand": "ATAACATG", "E-score": 0.0972}
{"Strand": "ACCCACGG", "E-score": 0.147}
{"Strand": "CGCTAGGC", "E-score": 0.125}
{"Strand": "GAAGAGGC", "E-score": 0.0596}
{"data": "Set 6", "target": "Replicase polyprotein 1ab, polymerase (rep, Severe acute respiratory syndrome coronavirus 2, UniProt P0DTD1)", "observed": "enzyme activity", "action": "inhibitor", "tested at": "20 µM"}
{"Compound": "O=C(Nc1ccc2c(O)cc(S(=O)(=O)O)cc2c1)Nc1ccc2c(O)cc(S(=O)(=O)O)cc2c1", "inhibition [%]": 90.5}
{"Compound": "C[C@]12C=CC(=O)C=C1CC[C@@H]1[C@@H]2C(=O)C[C@@]2(C)[C@H]1CC[C@]2(O)C(=O)CO", "inhibition [%]": 1.21}
{"Compound": "CC[C@@H](C)CNCC(=O)N1CCc2sccc2[C@@H]1COc1cccc(C)c1", "inhibition [%]": -12.5}
{"Compound": "CC(=O)[C@H]1CC[C@H]2[C@@H]3CC[C@@H]4C[C@H](O)CC[C@]4(C)[C@H]3CC[C@]12C", "inhibition [%]": -15.3}
{"Compound": "O=C(O)COc1nn(Cc2ccccc2)c2ccccc12", "inhibition [%]": 0.93}
{"Compound": "CC(=O)N(C)c1cccc(-c2ccnc3c(C(=O)c4cccs4)cnn23)c1", "inhibition [%]": 3.34}
{"Compound": "O=C(Nc1ccccc1)[C@@]12C[C@@H]1/C(=N\\O)c1ccccc1O2", "inhibition [%]": 2.72}
{"Compound": "COc1cc(OC)cc(C(=O)NNC(=O)Nc2cccc3ccccc23)c1", "inhibition [%]": -2.39}
{"Compound": "COc1cc(C(=O)N(CCC2CCCN2C)C/C(C)=C/c2ccccc2F)cc(OC)c1OC (stereo not drawn)", "inhibition [%]": 23.9}
{"Compound": "CCCCOc1ccc(CC/C=C2\\SC(=O)N(CCN)C2=O)cc1", "inhibition [%]": 2.46}
{"Compound": "CC1(C)[C@H]2CC[C@]1(C)[C@@H](O)[C@H]2O", "inhibition [%]": 3.94}
{"Compound": "COC(=O)/C=C/C(=O)OCCN1C(=O)CCC1=O", "inhibition [%]": -7.4}
{"Compound": "CCN(CC)C(C)CN1c2ccccc2Sc2ccccc21 (stereo not drawn)", "inhibition [%]": -1.46}
{"Compound": "Cc1ccc(NC(=O)CCCCCC(=O)Nc2ccccc2N)cc1", "inhibition [%]": 2.65}
{"Compound": "CC(C)CN(C[C@@H](OP(=O)(O)O)[C@H](Cc1ccccc1)NC(=O)O[C@H]1CCOC1)S(=O)(=O)c1ccc(N)cc1", "inhibition [%]": 1.86}
{"Compound": "CCCOC(=O)c1ccccc1", "inhibition [%]": 0.77}
{"Compound": "O=C(c1ccc(OCCCc2c[nH]cn2)cc1)C1CC1", "inhibition [%]": -1.67}
{"Compound": "C[C@H](CCC(=O)O)[C@H]1CC[C@H]2[C@@H]3[C@H](O)C[C@@H]4C[C@H](O)CC[C@]4(C)[C@H]3CC[C@]12C", "inhibition [%]": -1.66}
{"Compound": "COc1cc2c(cc1O)CC[C@@H]1[C@@H]2CC[C@]2(C)[C@@H](O)CC[C@@H]12", "inhibition [%]": -4.66}
{"Compound": "NC(=O)CCCCn1ccc(NC(N)=NCC(F)(F)F)n1", "inhibition [%]": -7.12}
{"Compound": "CC(C)Oc1cccc(CC(=O)N2CCC[C@](CC[N+]34CCC(c5ccccc5)(CC3)CC4)(c3ccc(Cl)c(Cl)c3)C2)c1", "inhibition [%]": 0.94}
{"Compound": "NC[C@@H]1O[C@H](C23CC4CC(CC(C4)C2)C3)Cc2c1ccc(O)c2O", "inhibition [%]": -1.39}
{"Compound": "CC(C)CCNC(=O)[C@H](CC(C)C)NC(=O)[C@H]1O[C@@H]1C(=O)O", "inhibition [%]": -4.84}
{"Compound": "O=C(O)Cc1ccc(OCCNC[C@H](O)c2ccccc2)cc1", "inhibition [%]": 5.85}
{"Compound": "CC(=O)NCCc1c[nH]c2ccccc12", "inhibition [%]": -20}
{"note": "Some of these lines once more (set 6):"}
{"Compound": "O=C(O)COc1nn(Cc2ccccc2)c2ccccc12", "inhibition [%]": 0.93}
{"Compound": "CC(=O)N(C)c1cccc(-c2ccnc3c(C(=O)c4cccs4)cnn23)c1", "inhibition [%]": 3.34}
{"Compound": "O=C(Nc1ccccc1)[C@@]12C[C@@H]1/C(=N\\O)c1ccccc1O2", "inhibition [%]": 2.72}
